Assay results gathered from unrelated publications.
Numbered parts are unrelated; each lists some results of a single study. Substitutions count along the parent as printed.

Study 1
Target: Sal-like protein 4, full length isoform B (SALL4, Homo sapiens, UniProt Q9UJQ4-2, residues 1-616)
Technique: universal PBM
Form: double-stranded DNA, one strand shown
Matrix: in vitro
Tested at: not given
Notes: 8-mer, flanks averaged, mean of replicates
Direction: higher = stronger binding
Quantity: E-score
Residues (chain): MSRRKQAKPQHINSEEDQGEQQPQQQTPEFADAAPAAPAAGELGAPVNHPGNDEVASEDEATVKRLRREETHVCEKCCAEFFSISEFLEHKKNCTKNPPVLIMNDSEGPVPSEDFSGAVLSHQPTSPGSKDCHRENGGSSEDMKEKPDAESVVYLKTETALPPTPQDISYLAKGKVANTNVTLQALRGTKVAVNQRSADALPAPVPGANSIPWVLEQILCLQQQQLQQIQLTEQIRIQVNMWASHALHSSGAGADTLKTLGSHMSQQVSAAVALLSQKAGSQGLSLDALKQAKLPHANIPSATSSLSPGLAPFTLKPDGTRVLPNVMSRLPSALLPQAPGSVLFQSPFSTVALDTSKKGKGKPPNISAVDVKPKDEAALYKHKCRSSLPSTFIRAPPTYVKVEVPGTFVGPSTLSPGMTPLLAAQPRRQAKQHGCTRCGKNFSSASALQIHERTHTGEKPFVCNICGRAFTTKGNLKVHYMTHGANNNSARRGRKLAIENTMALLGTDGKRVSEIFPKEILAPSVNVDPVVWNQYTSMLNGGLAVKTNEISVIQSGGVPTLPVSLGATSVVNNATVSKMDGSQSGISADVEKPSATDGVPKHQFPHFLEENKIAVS
AGGGGTCA: -0.041
ACGGGTGC: -0.18
ACGCCCAT: -0.0332
AAGTTATA: 0.365
ATTCATTC: 0.261
CGCTGTAA: 0.0362
CTTAGGCC: -0.211
GAGGTTTA: 0.0777
CCTTTTAA: 0.15
AACAGTAT: 0.279
GCCGGTAA: -0.147
AACCGTAG: -0.191
CTGGTGCA: -0.192
CCAGTGTA: 0.0407
GAGTACCA: 0.0172
TAAAAGCA: 0.149
AGGAAGCA: -0.00418
ATGATGAA: 0.283
AAGAGGTG: -0.0678
GACGCACC: -0.203
AGGGTCGA: -0.135
AGACATAG: 0.137
CGTCAAAG: -0.0415
GAAAGGCC: -0.196
AATAAACC: 0.235

Study 2
Target: RNA binding protein fox-1 homolog 2, RRM domain, GST-SBP tag (RBFOX2, Homo sapiens, UniProt O43251-10, residues 100-194)
Technique: RNA Bind-n-Seq
Form: RNA
Matrix: in vitro
Tested at: 365 nM
Notes: natural RNA segment, single round, ends assumed
Relative to: no-protein control
Direction: higher = stronger binding
Quantity: RBNS enrichment (R)
Construct (chain): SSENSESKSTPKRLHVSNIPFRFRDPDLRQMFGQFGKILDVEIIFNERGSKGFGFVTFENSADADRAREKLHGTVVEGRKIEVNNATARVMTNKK
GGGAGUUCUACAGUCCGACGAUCGUGGACUGAUUUUGCCUCACAUUAAAAACUCAUCCCAUGGCCAGGGCGGGCCACUGUGCUCCUGGAAGAUUCUCUGUUUAAGCACCCAGUGUCUUGCCCUGGGUUUUCUAUGGAAUUCUCGGGUGCCAA: 0.598
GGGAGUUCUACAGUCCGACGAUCCUGUGUCUGGAGGAUUUUGUCACCUACAAGCCUUGUCUUUACCUCACCUGCUCCCUGCCCAUAUCUACCACAGGCCACUUUGGCAUGGUAUGUAAGCUGAGCUCUUCAUUUGGAAUUCUCGGGUGCCAA: 0.354
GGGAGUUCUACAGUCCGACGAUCACCACACCCCAAUGCCUUCCCAGCUUGGAAGCCAAGGCAGCUGAUGAAGGGAGCUCAGGAGAGCCGUCUUCAGCUGGGCUGGGGUUGGGGCUGCUGUGAGGAAAACCUGCUGGAAUUCUCGGGUGCCAA: 0.399
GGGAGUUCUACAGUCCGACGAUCCUGGUAAAGUCCUGCUGUGCAGAUGACUGCUGUCUCCUGGGAAGGUCUCGGCACGGAGCUCUCGAGGCUGUGCAGACCUGCUCGUGGAGGGCUUAGGCUGUCUUAGGUGCUGGAAUUCUCGGGUGCCAA: 0.232
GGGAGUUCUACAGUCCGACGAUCUGGGCCUUCUCAGCUCUCCACCCCCACCACUCUUGACUCAGGUGGUGUCCUUCUUCCUCAAGUCUUGACAAUUCCCGGGCCCUUCAGUCCCUGAGCAGUCUACUUCUGUGUGGAAUUCUCGGGUGCCAA: 0.383
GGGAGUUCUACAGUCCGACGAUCGAGGACUUUCUUAAAGCUACUGGGCUGGAGGUCCUUUCCCACUCCUUUGUCCUUUGCUUGGCCUAAGAUGCCAAUGCCCCGCCAUGUUUUCUCCAGAGAGUCCUUGGGGUUGGAAUUCUCGGGUGCCAA: 0.746
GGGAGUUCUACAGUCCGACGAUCCCUGCCUGGACACAGGGAGGCCCAGGGACUGACUCCUGGCCUGAGUGAUGCCCUCCUGGGCCCUUAGGCAGAGCCUGGUCCAUUGUACCAGGCAGCCUAGCCCAGCCCAGUGGAAUUCUCGGGUGCCAA: 0.193
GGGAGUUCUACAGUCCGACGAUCCCUAAGCCACAGCGACGCCUAUGUCAUUCGGAUCUGGGCUCCCCAAACGAGGACACGACGGCCAAGGUGGCAGUUUGUCCCACGGGAGGACAGUCGUUUCUUUUCCAGCCUGGAAUUCUCGGGUGCCAA: 0.366
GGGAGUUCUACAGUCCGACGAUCGCAUUAAACUGGAAUUGACAAGAGUGUUGAGCAUCCCUGUCUAACCUGCUCUUUCUCUUUGGUGCCCCUUAUCUCACCCCUUCCUUGGAAUUUAAUAAGUCUCAGGCAUUUGGAAUUCUCGGGUGCCAA: 0.578
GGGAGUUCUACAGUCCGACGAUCGGAACUACAUCAGCGCCCACACUGGACCACAGACGGAGGCAGAUGAGGGCUCCAAGGCCGGAAGUCCUCCCUUCCUCCCUGUCUGCUCUCAUGCUCUCCGCCCUGUUCUAUGGAAUUCUCGGGUGCCAA: 0.265
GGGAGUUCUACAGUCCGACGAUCGGGGAAAGGAAGGAAGUGCAUGUUUGGGAACUGGCAUUACUGGAACUAAUGGUUUUAACCUCCUUAACCACCAGCAUCCCUCCUCUCCCCAAGGUGAAGUGGAGGGUGCUUGGAAUUCUCGGGUGCCAA: 3.83
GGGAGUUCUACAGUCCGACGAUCAGCCAUGGAAGGUUGUGGUUGUAAAUGAGUUGUCUAAAGGGGUGCAGAGGCCUGAGGUUUCUAAAAGAAGGUAGAUUUCUACAGAGCUGAGUGUUGGUUCCUUUUUCUUAUGGAAUUCUCGGGUGCCAA: 0.716

Study 3
Target: Prothrombin, mature alpha-thrombin (F2, Homo sapiens, UniProt P00734)
Technique: aptamer microarray, sandwich
Form: DNA with 2'F-ANA
Matrix: in vitro
Tested at: 200 nM
Notes: whole 15-mer aptamer, many near background
Added: Cy3 exosite-II aptamer, 400 nM
Direction: higher = stronger binding
Quantity: mean fluorescence intensity
Strand: GGTTGGTGTGGTTGG
2'F-ANA at 3 6 8 11 14 15: 540 a.u.
2'F-ANA at 1 2 3 6 8 9 10 11 12 14 15: 77.1 a.u.
2'F-ANA at 2 4 6 7 8 9 12 13 14 15: 98.5 a.u.
2'F-ANA at 3 4 5 7 9 10 11 15: 51.2 a.u.
2'F-ANA at 1 2 4 5 11 12 13 14: 160 a.u.
2'F-ANA at 2 5 7 9 12 15: 156 a.u.
2'F-ANA at 1 2 3 4 6 8 10: 62 a.u.
2'F-ANA at 2 6 10 11 12 13: 146 a.u.
2'F-ANA at 1 2 3 7 9 10 12: 90.9 a.u.
2'F-ANA at 2 4 5 7 8 9 12 14: 59.1 a.u.
2'F-ANA at 6 7 8 9 10 11 13 15: 145 a.u.
2'F-ANA at 1 2 7 8 11 12 13 14: 67 a.u.
2'F-ANA at 1 2 3 4 5 10 12 13 14: 60 a.u.
2'F-ANA at 4 5 7 9 10 12: 57.7 a.u.
2'F-ANA at 2 3 4 5 7 8 11 12 15: 169 a.u.
2'F-ANA at 4 8 11 12 15: 496 a.u.
2'F-ANA at 1 3 4 5 12 13: 83.1 a.u.
2'F-ANA at 1 2 5 7 8 9 10 12 13 14 15: 57.1 a.u.
2'F-ANA at 2 3 4 5 11 12: 166 a.u.
2'F-ANA at 1 2 5 8 9 11 12: 124 a.u.
2'F-ANA at 1 5 7 10 12 13 14 15: 45.9 a.u.
2'F-ANA at 1 5 6 7 8 9 10 12 14: 47.7 a.u.

Study 4
Target: CCND2, cyclin fold, Cln2 fusion (human)
Technique: yeast growth competition, sequencing
Matrix: yeast
Notes: weak parent motif
Relative to: not given
Direction: higher = stronger binding
Quantity: normalised enrichment score
Parent: WEE2 docking peptide (human); KELRQKLNFSYCE; partner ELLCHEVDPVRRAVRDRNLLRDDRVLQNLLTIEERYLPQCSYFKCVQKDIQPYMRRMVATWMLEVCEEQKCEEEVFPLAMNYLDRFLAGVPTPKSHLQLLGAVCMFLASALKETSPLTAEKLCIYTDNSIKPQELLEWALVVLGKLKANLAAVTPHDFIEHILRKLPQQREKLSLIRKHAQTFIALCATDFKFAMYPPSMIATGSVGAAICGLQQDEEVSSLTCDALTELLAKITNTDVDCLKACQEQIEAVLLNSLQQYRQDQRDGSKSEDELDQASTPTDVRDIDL
R4A: -0.101
K1A: -0.142
S10A: 0.0376
L7A: -0.193
C12A: -0.283
F9A: 0.48

For quick reference, copied from above (study 1):
CCAGTGTA: 0.0407
CCTTTTAA: 0.15
AGGGGTCA: -0.041
GCCGGTAA: -0.147
